{"data": "Experimental data of several laboratories", "note": "Parts stem from different laboratories: compare values within a part only. Substitutions count along the parent as printed."}
{"data": "Series 1", "target": "Fragile X messenger ribonucleoprotein 1, C-terminal low-complexity region (Fmr1, Mus musculus, UniProt P35922)", "technique": "RNA Bind-n-Seq", "form": "RNA", "medium": "in vitro", "tested at": "200 nM", "setting": "whole 134-nt RNA, ends assumed", "added": "150 mM KCl", "baseline": "input library", "direction": "higher = stronger binding"}
{"Oligonucleotide": "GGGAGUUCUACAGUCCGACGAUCAAGUCCUGUGCUACACAUCGUAUGUACCGAAUCGGGCCCGGGCCCGGGGCCCGGGGAAAGUAUUAUGUUACGCCGUUCGGAUCUGCACUUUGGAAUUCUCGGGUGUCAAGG", "log2 enrichment": -0.823}
{"Oligonucleotide": "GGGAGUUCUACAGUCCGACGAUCCAAGUCCUGUGCUACACAUCGUAUGUACCGAAUCGGGAAAGGGUGGGAAAAAGGGAAAGUAUUAUGUUACGCCGUUCGGAUCUGCACUUCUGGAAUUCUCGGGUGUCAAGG", "log2 enrichment": 0.961}
{"Oligonucleotide": "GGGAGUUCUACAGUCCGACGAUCCCUGUGCUACACAUCGUAUGUACCGAAUCGGAAAAAAAGGAAAAAAAGGGAAAAAAAGGGGAAAGUAUUAUGUUACGCCGUUCGGAUCUGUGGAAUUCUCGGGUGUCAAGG", "log2 enrichment": -1.09}
{"Oligonucleotide": "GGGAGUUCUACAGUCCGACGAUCAGUCCUGUGCUACACAUCGUAUGUACCGAAUCGGGAAAAAAAGGGUGGGAAAAAGGGAAAGUAUUAUGUUACGCCGUUCGGAUCUGCACUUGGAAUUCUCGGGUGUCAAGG", "log2 enrichment": 0.341}
{"Oligonucleotide": "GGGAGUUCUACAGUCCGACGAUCAGUCCUGUGCUACACAUCGUAUGUACCGAAUCGGGUUUUUGGUUUUUGGUUUUUGGGGAAAGUAUUAUGUUACGCCGUUCGGAUCUGCACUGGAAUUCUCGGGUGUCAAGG", "log2 enrichment": -0.545}
{"Oligonucleotide": "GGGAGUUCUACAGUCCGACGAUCGUCCUGUGCUACACAUCGUAUGUACCGAAUCGGGGAGGGGUUUUUUUGGGGAAAGGGGAAAGUAUUAUGUUACGCCGUUCGGAUCUGCACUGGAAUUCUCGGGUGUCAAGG", "log2 enrichment": 0.717}
{"Oligonucleotide": "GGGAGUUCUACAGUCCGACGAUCUUCUCUAAGAGGAACUCCGGCGCGUCAGAGUAACAGAAGCGAGAGCACAGACAGUCUUGGGGGCUUGUCUCCCUCUGAAGUCACAGCCAUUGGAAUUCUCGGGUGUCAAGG", "log2 enrichment": -0.0579}
{"Oligonucleotide": "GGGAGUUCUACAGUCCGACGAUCCUGUGCUACACAUCGUAUGUACCGAAUCGGGGUUUUUGGGGUUUUUUUGGGGAAAAAGGGGAAAGUAUUAUGUUACGCCGUUCGGAUCUGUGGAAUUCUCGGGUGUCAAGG", "log2 enrichment": -0.127}
{"Oligonucleotide": "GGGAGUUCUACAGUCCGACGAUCCCCAUCAUGUUCAGAGGUGAGGUCCGUCUGAAUGUCGAAGAGAAGAAGACUCGAGCUGCCAGGGAAGGCGACCGACGAGAUAAUCGCCUUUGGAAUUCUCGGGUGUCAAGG", "log2 enrichment": -1.44}
{"data": "Series 2", "target": "Histone acetyltransferase KAT6A, winged helix 2, GST fusion (KAT6A, Homo sapiens, UniProt Q92794, residues 85-181)", "technique": "protein binding microarray", "form": "double-stranded DNA, one strand shown", "medium": "in vitro", "tested at": "not given", "setting": "8-mer, flanks averaged, mean of 2 arrays, mostly near background", "baseline": "not given", "direction": "higher = stronger binding", "Target sequence (chain)": "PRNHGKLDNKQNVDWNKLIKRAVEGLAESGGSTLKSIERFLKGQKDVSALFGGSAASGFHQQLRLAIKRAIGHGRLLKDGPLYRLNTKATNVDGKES"}
{"Oligonucleotide": "AGGCTTTC", "E-score": -0.00264}
{"Oligonucleotide": "GACCGTTA", "E-score": -0.167}
{"Oligonucleotide": "ACTTATGA", "E-score": -0.101}
{"Oligonucleotide": "CGCGAGAG", "E-score": 0.1}
{"Oligonucleotide": "GCGTACGC", "E-score": -0.035}
{"Oligonucleotide": "CGAAATCA", "E-score": 0.156}
{"Oligonucleotide": "CTCGACAC", "E-score": 0.127}
{"Oligonucleotide": "AATCTGGA", "E-score": 0.0221}
{"Oligonucleotide": "CTCTTCAC", "E-score": -0.0541}
{"Oligonucleotide": "AGGGGTGG", "E-score": -0.0516}
{"Oligonucleotide": "CCAAGAGG", "E-score": 0.0938}
{"Oligonucleotide": "GAAGAGCC", "E-score": 0.0712}
{"Oligonucleotide": "AGCTTGAC", "E-score": -0.123}
{"Oligonucleotide": "GCCCTATA", "E-score": -0.157}
{"Oligonucleotide": "ACACGACT", "E-score": -0.185}
{"Oligonucleotide": "CCATGTTA", "E-score": -0.142}
{"Oligonucleotide": "CTCACGTA", "E-score": -0.221}
{"Oligonucleotide": "GACTTTCC", "E-score": -0.132}
{"Oligonucleotide": "ATTACCAA", "E-score": -0.0942}
{"Oligonucleotide": "GTTGTATA", "E-score": -0.0345}
{"Oligonucleotide": "AAGCCAAT", "E-score": -0.0703}
{"Oligonucleotide": "ATTACCTG", "E-score": -0.223}
{"Oligonucleotide": "ATCGTCCG", "E-score": 0.142}
{"Oligonucleotide": "GAGAGAGA", "E-score": -0.103}
{"Oligonucleotide": "AAATTATC", "E-score": 0.255}
{"data": "Series 3", "target": "Interferon regulatory factor 3, full length, phosphomimetic (IRF3, Homo sapiens, UniProt Q14653, residues 1-427, S386D/S396D/S398D/S402D/T404D/S405D)", "technique": "protein-binding microarray", "form": "double-stranded DNA, one strand shown", "medium": "in vitro", "tested at": "2540 nM top", "setting": "60-bp whole probe", "added": "salmon DNA 0.4 mg/ml", "baseline": "random background probes", "direction": "higher = stronger binding", "all sequences stand within": "GCCTAGCAC … GTCTTGATTCGCTTGACGCTGCTG", "Residues (chain)": "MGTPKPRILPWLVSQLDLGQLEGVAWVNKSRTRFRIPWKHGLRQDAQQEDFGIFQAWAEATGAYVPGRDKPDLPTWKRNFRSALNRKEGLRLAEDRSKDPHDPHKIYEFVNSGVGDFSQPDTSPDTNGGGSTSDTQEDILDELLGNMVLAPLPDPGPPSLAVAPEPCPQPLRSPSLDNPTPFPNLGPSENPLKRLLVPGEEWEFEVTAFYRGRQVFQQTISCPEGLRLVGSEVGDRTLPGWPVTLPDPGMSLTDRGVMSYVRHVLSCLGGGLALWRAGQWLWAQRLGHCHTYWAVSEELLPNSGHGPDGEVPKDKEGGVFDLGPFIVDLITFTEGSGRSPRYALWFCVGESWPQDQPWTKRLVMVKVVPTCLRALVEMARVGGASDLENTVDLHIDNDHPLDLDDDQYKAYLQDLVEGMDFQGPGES"}
{"Oligonucleotide": "GACGGACTGGACACTGGGGATGTGCTA", "fitted relative affinity": "-0.724 z-score"}
{"Oligonucleotide": "GACGATTTTGGGTTTCGAGACGTGCTA", "fitted relative affinity": "1.34 z-score"}
{"Oligonucleotide": "GCGCCTTGATGTCTGGGTCTGTGCTAG", "fitted relative affinity": "-0.638 z-score"}
{"Oligonucleotide": "GACGGACTGGGTCTGGGGACGTGCTAG", "fitted relative affinity": "-0.914 z-score"}
{"Oligonucleotide": "GCATCTATCTTAAATAGGGACGTGCTA", "fitted relative affinity": "0.985 z-score"}
{"Oligonucleotide": "CTAGGTATCGACTATCGGTTAGTGCTA", "fitted relative affinity": "0.556 z-score"}
{"Oligonucleotide": "TACAATTTGCTTTAGTCATTGTGCTAG", "fitted relative affinity": "0.178 z-score"}
{"Oligonucleotide": "CGAGACCTCGTCTCTATCAAAGTGCTA", "fitted relative affinity": "-0.423 z-score"}
{"Oligonucleotide": "TTAGGACTGCTTCTCCTTTGGTGCTAG", "fitted relative affinity": "-0.23 z-score"}
{"Oligonucleotide": "GACTCTTTCTGTCAGTTTTGGTGCTAG", "fitted relative affinity": "1.65 z-score"}
{"Oligonucleotide": "CTCAGTTTATTTATTTTTACGTGCTAG", "fitted relative affinity": "0.693 z-score"}
{"Oligonucleotide": "TTAGGTTCCCTTTTCGTTTAGTGCTAG", "fitted relative affinity": "7.29 z-score"}
{"Oligonucleotide": "GTATATATAATATATATTCATGTGCTA", "fitted relative affinity": "0.361 z-score"}
{"Oligonucleotide": "TTAGGTCTCGGACTGCGTTAGTGCTAG", "fitted relative affinity": "-0.307 z-score"}
{"Oligonucleotide": "ATGCATTGTTATTTGTCAATGTGCTAG", "fitted relative affinity": "0.167 z-score"}
{"Oligonucleotide": "GACGTTTTCCTACTGCTGACGTGCTAG", "fitted relative affinity": "3.11 z-score"}
{"data": "Series 4", "target": "PABPC1L2, full length, GST fusion (mouse, UniProt A0ABA7IW68)", "technique": "RNAcompete", "form": "RNA", "medium": "in vitro", "tested at": "20 nM", "setting": "7-mer, probes averaged, single round", "baseline": "mean of 7-mers", "direction": "higher = stronger binding", "Construct (chain)": "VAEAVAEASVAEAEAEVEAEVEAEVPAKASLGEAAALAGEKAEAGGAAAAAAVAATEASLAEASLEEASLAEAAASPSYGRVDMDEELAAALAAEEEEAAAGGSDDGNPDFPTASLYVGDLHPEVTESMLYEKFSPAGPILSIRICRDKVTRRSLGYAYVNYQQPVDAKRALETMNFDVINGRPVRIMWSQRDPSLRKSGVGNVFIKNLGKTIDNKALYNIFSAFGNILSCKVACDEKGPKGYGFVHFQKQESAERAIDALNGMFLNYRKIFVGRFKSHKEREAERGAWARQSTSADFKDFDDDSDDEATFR"}
{"Oligonucleotide": "CUUACUU", "7-mer Z-score": -0.278}
{"Oligonucleotide": "UAAAUUU", "7-mer Z-score": 0.755}
{"Oligonucleotide": "CGUUCAU", "7-mer Z-score": -0.398}
{"Oligonucleotide": "UCUUGUG", "7-mer Z-score": -0.425}
{"Oligonucleotide": "AAGUAAA", "7-mer Z-score": 1.14}
{"Oligonucleotide": "UGAGCCA", "7-mer Z-score": -0.202}
{"Oligonucleotide": "CGGCUAG", "7-mer Z-score": -0.148}
{"Oligonucleotide": "GACGGCA", "7-mer Z-score": 0.128}
{"Oligonucleotide": "GGUACUG", "7-mer Z-score": 0.0243}
{"Oligonucleotide": "GAUUCGA", "7-mer Z-score": -0.307}
{"Oligonucleotide": "AAUCUCC", "7-mer Z-score": -0.119}
{"Oligonucleotide": "CCGCCUA", "7-mer Z-score": -0.358}
{"Oligonucleotide": "GAUAUAC", "7-mer Z-score": -0.122}
{"Oligonucleotide": "AUACACC", "7-mer Z-score": -0.0446}
{"Oligonucleotide": "CCGACCG", "7-mer Z-score": -0.193}
{"Oligonucleotide": "CGGGCCG", "7-mer Z-score": -0.103}
{"Oligonucleotide": "CGGGCGU", "7-mer Z-score": -0.0718}
{"Oligonucleotide": "AACCGUU", "7-mer Z-score": -0.0772}
{"Oligonucleotide": "CAUCGUA", "7-mer Z-score": -0.193}
{"Oligonucleotide": "CAACUAA", "7-mer Z-score": 0.222}
{"Oligonucleotide": "UCCGUCU", "7-mer Z-score": -0.367}
{"Oligonucleotide": "GAUGAGC", "7-mer Z-score": -0.0301}
{"Oligonucleotide": "GACUCGC", "7-mer Z-score": -0.403}
{"Oligonucleotide": "GCAGCAU", "7-mer Z-score": -0.0554}
{"Oligonucleotide": "CACUGUA", "7-mer Z-score": -0.195}
{"data": "Series 5", "target": "CCNE2, cyclin fold, Cln2 fusion (human)", "technique": "yeast growth competition, sequencing", "medium": "yeast", "setting": "weak parent motif", "baseline": "not given", "direction": "higher = stronger binding", "parent": "CDT1 docking peptide (human); PPARRRLRLSVDE; partner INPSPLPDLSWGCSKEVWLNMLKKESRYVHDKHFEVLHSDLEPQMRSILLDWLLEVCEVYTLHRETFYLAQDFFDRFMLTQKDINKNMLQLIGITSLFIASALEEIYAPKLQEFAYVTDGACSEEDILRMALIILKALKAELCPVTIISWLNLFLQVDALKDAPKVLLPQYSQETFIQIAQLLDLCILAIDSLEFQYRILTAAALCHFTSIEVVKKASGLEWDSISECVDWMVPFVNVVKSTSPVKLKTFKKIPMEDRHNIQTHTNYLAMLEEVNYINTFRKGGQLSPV"}
{"Change": "PPARRRLRFSVDE [L9F]", "normalised enrichment score": 3.49}
{"Change": "PPARRRLALSVDE [R8A]", "normalised enrichment score": 1.15}
{"Change": "PPARKRLRLSVDE [R5K]", "normalised enrichment score": 0.453}
{"Change": "PPARARARLSVDE [R5A L7A]", "normalised enrichment score": 0.0284}
{"Change": "PPARARLRLSVDE [R5A]", "normalised enrichment score": -0.271}
{"Change": "PPARRRLRLSVAE [D12A]", "normalised enrichment score": 1.58}
{"Change": "PAARRRLRLSVDE [P2A]", "normalised enrichment score": 1.03}
{"Change": "PPARRRLRLSVDA [E13A]", "normalised enrichment score": 1.22}
{"Change": "PPARRRARLSVDE [L7A]", "normalised enrichment score": 1.54}
